Results of several laboratories.
A part holds a random share of what one study measured. Positions count from the first letter of the parent shown.

Sample 1
Target: Histone acetyltransferase KAT6A, winged helix 2, GST fusion (KAT6A, Homo sapiens, UniProt Q92794, residues 85-181)
Technique: protein binding microarray
Form: double-stranded DNA, one strand shown
Medium: in vitro
Concentration: not given
Setting: 8-mer, flanks averaged, mean of 2 arrays, mostly near background
Relative to: not given
Direction: higher = stronger binding
Construct (chain): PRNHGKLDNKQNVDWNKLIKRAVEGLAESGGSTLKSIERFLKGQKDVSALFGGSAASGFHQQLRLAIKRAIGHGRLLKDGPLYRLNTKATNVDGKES
`ACGCAAGG` gave an E-score of 0.0671.
For `CGAGCTTA`, the E-score was 0.01.
The E-score of `CTCCTTAA` is reported as -0.0125.
For `TGGTTCAA`, the E-score was 0.0373.
The E-score of `CTAGCAAA` is reported as 0.0773.
`GGAAGCCA` gave an E-score of -0.101.
`CTTTCACC` has an E-score of -0.18.
`GTGAAAAA` gave an E-score of 0.123.
`CGTAATAG` has an E-score of -0.163.
The E-score of `CCATGGAC` is reported as -0.123.
`AGCGTCCC` gave an E-score of -0.0932.
The E-score of `TATGAAAA` is reported as -0.0205.
The E-score of `AGTTTCGC` is reported as -0.0254.
`GGTTTAGA` has an E-score of 0.00957.
With `AAGTAGCG` the E-score was -0.0323.
For `AGACGGCC`, the E-score was -0.0331.
`ATACCTAA` has an E-score of -0.0292.
`CTAAACGC` gave an E-score of 0.0828.
For `ACACATCA`, the E-score was -0.157.
With `AGGCGCTA` the E-score was -0.0305.
With `AGATACGC` the E-score was -0.045.
With `ATATGCTA` the E-score was 0.061.
With `GACGTACC` the E-score was -0.0884.
For `GCTCGTGA`, the E-score was -0.0663.
`CGGTACAA` has an E-score of -0.127.

Sample 2
Target: CCND2, cyclin fold, Cln2 fusion (human)
Technique: yeast growth competition, sequencing
Medium: yeast
Setting: weak parent motif
Relative to: not given
Direction: higher = stronger binding
Starting sequence: CDKN1A docking peptide (human); SKACRRLFGPVDS; partner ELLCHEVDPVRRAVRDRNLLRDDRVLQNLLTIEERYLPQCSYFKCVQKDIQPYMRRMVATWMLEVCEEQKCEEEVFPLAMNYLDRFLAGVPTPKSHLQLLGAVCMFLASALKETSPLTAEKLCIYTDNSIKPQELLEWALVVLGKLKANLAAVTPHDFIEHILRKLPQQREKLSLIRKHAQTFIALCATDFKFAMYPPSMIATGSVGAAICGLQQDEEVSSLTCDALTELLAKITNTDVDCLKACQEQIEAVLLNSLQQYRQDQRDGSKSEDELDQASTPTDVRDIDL
Under “normalised enrichment score”, `G9M` is recorded as 0.569.
For `C4R`, “normalised enrichment score” read 0.154.
`C4V` — result for “normalised enrichment score”: 0.387.
`V11S`: “normalised enrichment score” 0.441.
Under “normalised enrichment score”, `D12S` is recorded as 0.197.
For `F8T`, “normalised enrichment score” read -0.745.
`K2E`: “normalised enrichment score” 0.328.
`D12W`: “normalised enrichment score” 0.0338.
For `C4Q`, “normalised enrichment score” read 0.384.
`D12R`: “normalised enrichment score” 0.0442.
Under “normalised enrichment score”, `P10D` is recorded as 0.685.
For `R6W`, “normalised enrichment score” read 0.00123.
Under “normalised enrichment score”, `R5A` is recorded as 0.0294.
`A3C` — result for “normalised enrichment score”: 0.385.
`C4W` — result for “normalised enrichment score”: 0.0634.
Under “normalised enrichment score”, `D12P` is recorded as 0.0465.

Sample 3
Target: Interferon regulatory factor 7, full length, phosphomimetic (IRF7, Homo sapiens, UniProt Q92985, residues 1-503, S101K/S471D/S472D/S475D/S476D/S477D/S483D/S484D/S487D)
UniProt Q92985, sequence (whole entry, unmodified, looked up): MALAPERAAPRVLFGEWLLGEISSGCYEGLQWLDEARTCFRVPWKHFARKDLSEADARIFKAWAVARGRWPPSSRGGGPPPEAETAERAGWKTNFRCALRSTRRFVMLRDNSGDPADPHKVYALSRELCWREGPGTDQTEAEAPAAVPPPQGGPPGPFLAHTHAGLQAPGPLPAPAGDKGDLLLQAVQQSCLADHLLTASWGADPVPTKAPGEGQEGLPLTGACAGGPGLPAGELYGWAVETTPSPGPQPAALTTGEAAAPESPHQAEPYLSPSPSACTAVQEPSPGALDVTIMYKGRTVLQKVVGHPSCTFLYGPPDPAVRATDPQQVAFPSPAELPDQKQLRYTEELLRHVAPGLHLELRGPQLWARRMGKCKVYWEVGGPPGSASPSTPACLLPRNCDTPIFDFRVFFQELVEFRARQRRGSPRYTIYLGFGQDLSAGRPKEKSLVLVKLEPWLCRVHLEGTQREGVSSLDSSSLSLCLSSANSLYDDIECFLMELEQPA
Technique: protein-binding microarray
Form: double-stranded DNA, one strand shown
Medium: in vitro
Concentration: 250 nM
Setting: 60-bp whole probe
Together with: salmon DNA 0.4 mg/ml
Relative to: random background probes
Direction: higher = stronger binding
Constant ends, left off below: GCCTAGCAC … GTCTTGATTCGCTTGACGCTGCTG
With `TTAGGGTTCGGTTCCGGTTAGTGCTAG` the log fluorescence was 4.13 z-score.
With `TCACCTTAGGTTTTCTGACTGTGCTAG` the log fluorescence was 0.564 z-score.
`TGTCTTTTCATTTTCTTTAAGTGCTAG` gave a log fluorescence of 2.08 z-score.
For `CCATGTTGCAGACTCGAAGGGTGCTAG`, the log fluorescence was 0.714 z-score.
With `GACCATCTCATATAAATAGGCGTGCTA` the log fluorescence was 0.348 z-score.
The log fluorescence of `TTAGGTCTCGGTCTCGGTAAGTGCTAG` is reported as 1.9 z-score.
`TTAGATATGGGGTATCGATTAGTGCTA` gave a log fluorescence of 0.462 z-score.
`TTTCACACTGTCCAGCAGGTGTGCTAG` gave a log fluorescence of 0.915 z-score.
`TCAGGTTTCGGTCTCGGTTAGTGCTAG` gave a log fluorescence of 9.19 z-score.
`TTAGGTCTCCTACTGCTTAAGTGCTAG` has a log fluorescence of -0.171 z-score.
`TGTAGCTGGAGAAGTAAAACGTGCTAG` gave a log fluorescence of -0.3 z-score.
`TGCTTTCTCTTTCACTGCTGGTGCTAG` gave a log fluorescence of 3.25 z-score.
`TCATGTTTTTCATTATTACTGTGCTAG` has a log fluorescence of 1.24 z-score.
With `CCACATTTGATAAATCTTTGTGTGCTA` the log fluorescence was 0.459 z-score.
With `GACTGTATCGACACTGGGGACGTGCTA` the log fluorescence was -0.225 z-score.
With `TCATTTTTTTTTTTCTGACTGTGCTAG` the log fluorescence was 0.713 z-score.
For `GACGGTTTCAGTATCGAGACGTGCTAG`, the log fluorescence was 2.7 z-score.
`TTAGATTTCAGACTTGATTAGTGCTAG` has a log fluorescence of 0.261 z-score.
`CTTTTTTTGGTAATAGTGAAGTGCTAG` has a log fluorescence of 1.26 z-score.
With `GACGATATCAGTATCGAGAAGTGCTAG` the log fluorescence was -0.41 z-score.
For `GACGATCTCAGACTGGATACGTGCTAG`, the log fluorescence was -0.287 z-score.
For `TTAGATCTCAGGCTCGATTAGTGCTAG`, the log fluorescence was 0.575 z-score.
The log fluorescence of `TTAGGACTGCTTTTCCCTTAGTGCTAG` is reported as 1.41 z-score.
For `GACGATCTCCGTTTCGAGACGTGCTAG`, the log fluorescence was 1.13 z-score.
`TTAGGTTTCGGGACTCGGTTAGTGCTA` gave a log fluorescence of 5.86 z-score.

Sample 4
Target: Ras GTPase-activating protein-binding protein 1, RRM domain (G3BP1, Homo sapiens, UniProt Q13283)
UniProt Q13283, sequence (whole entry, looked up): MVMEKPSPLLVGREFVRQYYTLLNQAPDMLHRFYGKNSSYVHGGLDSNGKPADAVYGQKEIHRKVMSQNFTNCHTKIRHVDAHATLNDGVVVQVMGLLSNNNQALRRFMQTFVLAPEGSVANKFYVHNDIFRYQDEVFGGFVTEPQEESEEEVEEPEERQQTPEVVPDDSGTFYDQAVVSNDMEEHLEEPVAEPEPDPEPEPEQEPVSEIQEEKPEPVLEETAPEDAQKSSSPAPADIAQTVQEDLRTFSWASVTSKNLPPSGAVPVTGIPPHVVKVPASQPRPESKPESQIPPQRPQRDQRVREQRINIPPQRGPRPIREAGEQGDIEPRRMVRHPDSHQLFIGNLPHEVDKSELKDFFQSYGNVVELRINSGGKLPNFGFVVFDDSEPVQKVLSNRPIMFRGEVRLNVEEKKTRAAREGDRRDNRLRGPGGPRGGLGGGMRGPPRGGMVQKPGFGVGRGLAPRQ
Technique: RNA Bind-n-Seq
Form: RNA
Medium: in vitro
Concentration: 1 µM
Setting: whole 134-nt RNA, ends assumed
Together with: 150 mM KCl
Relative to: input library
Direction: higher = stronger binding
For `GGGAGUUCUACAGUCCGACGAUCUCCUGUGCUACACAUCGUAUGUACCGAAUCGGGGUUUUUGGGUUUUUGGGGUUUUUGGGAAAGUAUUAUGUUACGCCGUUCGGAUCUGCAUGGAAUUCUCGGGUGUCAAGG`, the log2 enrichment was -0.0123.
For `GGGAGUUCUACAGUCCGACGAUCCUCAAGUCCUGUGCUACACAUCGUAUGUACCGAAUCGGGAGGGUGGGUUUGGGAAAGUAUUAUGUUACGCCGUUCGGAUCUGCACUUCCAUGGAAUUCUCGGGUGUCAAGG`, the log2 enrichment was 0.772.
`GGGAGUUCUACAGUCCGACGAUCUCCUGUGCUACACAUCGUAUGUACCGAAUCGGGGCCCCCGGGCCCCCGGGCCCCCGGGGAAAGUAUUAUGUUACGCCGUUCGGAUCUGCAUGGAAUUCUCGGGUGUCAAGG` gave a log2 enrichment of -0.738.
`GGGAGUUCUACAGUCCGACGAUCUCCUGUGCUACACAUCGUAUGUACCGAAUCGGGGAAAAAAAGGGGUGGGGAAAAAGGGGAAAGUAUUAUGUUACGCCGUUCGGAUCUGCAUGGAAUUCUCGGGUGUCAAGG` has a log2 enrichment of 0.618.
With `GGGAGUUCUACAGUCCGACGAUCUCCUCAAGUCCUGUGCUACACAUCGUAUGUACCGAAUCGGUGGGGUGGUGGGAAAGUAUUAUGUUACGCCGUUCGGAUCUGCACUUCCAGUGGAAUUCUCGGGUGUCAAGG` the log2 enrichment was -0.143.
For `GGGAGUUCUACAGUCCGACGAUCCUGUGCUACACAUCGUAUGUACCGAAUCGGGGAAAAAAAGGGGAAAAAAAGGAAAAAAAGGAAAGUAUUAUGUUACGCCGUUCGGAUCUGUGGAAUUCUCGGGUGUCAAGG`, the log2 enrichment was 0.0892.
With `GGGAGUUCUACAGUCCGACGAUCGGUGAUGGUCAACAAGCCUCAACUGCCUCUGCUACAACUGCCAAGUUCCCCGCGUCCCACCCUCCUCUAGGUGCUCCAAGGGACCACCGGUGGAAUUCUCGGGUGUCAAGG` the log2 enrichment was -0.438.
For `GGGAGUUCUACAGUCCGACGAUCUCAAGUCCUGUGCUACACAUCGUAUGUACCGAAUCGGGUGGGAAAAAGGGUGGGAAAGUAUUAUGUUACGCCGUUCGGAUCUGCACUUCCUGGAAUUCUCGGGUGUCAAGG`, the log2 enrichment was 0.556.
`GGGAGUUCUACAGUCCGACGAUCACCAUGCAGGUGGGCAUCUUUGGGAAGUGGGGCAAGGGGGGGAGAGGGAGGGGGGUAACACUUUGGGAACAGGUGGUCCCAGGUCGUUUCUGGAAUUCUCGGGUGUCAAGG` gave a log2 enrichment of 1.08.
For `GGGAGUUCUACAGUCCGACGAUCAAGUCCUGUGCUACACAUCGUAUGUACCGAAUCGGUUUUUGGUUUGGAAAAAAAGGAAAGUAUUAUGUUACGCCGUUCGGAUCUGCACUUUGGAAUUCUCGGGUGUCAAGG`, the log2 enrichment was -0.201.

Repeated from above (sample 1):
For `TGGTTCAA`, the E-score was 0.0373.
With `GACGTACC` the E-score was -0.0884.
For `CGAGCTTA`, the E-score was 0.01.
The E-score of `AGTTTCGC` is reported as -0.0254.
`CGGTACAA` has an E-score of -0.127.
The E-score of `CCATGGAC` is reported as -0.123.
The E-score of `CTAGCAAA` is reported as 0.0773.
